Measured values from different studies.
Numbered parts are unrelated; each lists some results of a single study.

Block 1 — technique: protein binding microarray; molecule type: double-stranded DNA, one strand shown; medium: in vitro; tested at: not given; relative to: not given; reading: higher = stronger binding
Target: Histone acetyltransferase KAT6A, winged helix 2, GST fusion (KAT6A, Homo sapiens, UniProt Q92794, residues 85-181)
Notes: 8-mer, flanks averaged, mean of 2 arrays, mostly near background
Target sequence (chain): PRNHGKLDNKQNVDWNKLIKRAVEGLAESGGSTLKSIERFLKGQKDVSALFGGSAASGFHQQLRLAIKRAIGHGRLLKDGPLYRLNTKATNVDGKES
For `AGGTCGAA`, the E-score was 0.119.
The E-score of `GGGTGCCA` is reported as 0.0208.
The E-score of `CAGAGCGC` is reported as -0.0214.
With `GAGAAGCC` the E-score was 0.0315.
`ATCGGGGA` has an E-score of -0.0386.
`AGAAGGGC` has an E-score of 0.167.
For `AGCCTGGG`, the E-score was 0.172.
`CTGAAGTC` gave an E-score of -0.166.
`GCTACGCA` gave an E-score of 0.126.

Block 2 — technique: RNA Bind-n-Seq; molecule type: RNA; medium: in vitro; tested at: 200 nM; notes: whole 134-nt RNA, ends assumed; together with: 150 mM KCl; relative to: input library; reading: higher = stronger binding
Target: Ras GTPase-activating protein-binding protein 1, full length (G3BP1, Homo sapiens, UniProt Q13283)
Sequence of UniProt Q13283 (whole entry, looked up): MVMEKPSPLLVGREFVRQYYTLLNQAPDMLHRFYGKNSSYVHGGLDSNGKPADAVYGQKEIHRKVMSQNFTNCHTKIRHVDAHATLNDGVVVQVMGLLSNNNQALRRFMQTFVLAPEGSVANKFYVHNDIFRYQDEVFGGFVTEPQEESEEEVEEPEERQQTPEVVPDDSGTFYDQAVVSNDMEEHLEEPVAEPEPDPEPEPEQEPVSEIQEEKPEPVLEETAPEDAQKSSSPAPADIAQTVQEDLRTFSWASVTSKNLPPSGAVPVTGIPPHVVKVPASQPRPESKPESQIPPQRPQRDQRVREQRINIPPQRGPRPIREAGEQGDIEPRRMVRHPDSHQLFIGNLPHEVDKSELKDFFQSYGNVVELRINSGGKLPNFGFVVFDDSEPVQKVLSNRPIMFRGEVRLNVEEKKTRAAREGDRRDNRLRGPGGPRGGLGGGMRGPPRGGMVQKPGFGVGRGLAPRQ
For `GGGAGUUCUACAGUCCGACGAUCCCUCAAGUCCUGUGCUACACAUCGUAUGUACCGAAUCGGAGGUUUUUGGUGGAAAGUAUUAUGUUACGCCGUUCGGAUCUGCACUUCCAGUGGAAUUCUCGGGUGUCAAGG`, the log2 enrichment was -0.138.
For `GGGAGUUCUACAGUCCGACGAUCAGUCCUGUGCUACACAUCGUAUGUACCGAAUCGGGUUUUUUUGGGAGGGAAAAAGGGAAAGUAUUAUGUUACGCCGUUCGGAUCUGCACUUGGAAUUCUCGGGUGUCAAGG`, the log2 enrichment was 0.0294.
The log2 enrichment of `GGGAGUUCUACAGUCCGACGAUCGCAGGAAGUAAAAACAAAUGGAAAUGCUUCGGAUAGUGGCAGGGGUGGGGGUUGCUAAGGAAAGGGUGGGAUGGUAGUGGGUAAAGAGUUUGGAAUUCUCGGGUGUCAAGG` is reported as 0.577.
`GGGAGUUCUACAGUCCGACGAUCGCACGAAGUAAAAACAAAUGGAAAUGCUUCGGAUAGUGGCAGGGGUGGGGGUUGCUAAGGAAAGGGUGGGAUGGGAGUGGGUAAAGAGUUUGGAAUUCUCGGGUGUCAAGG` gave a log2 enrichment of 0.945.

Block 3 — technique: protein-binding microarray; molecule type: double-stranded DNA, one strand shown; medium: in vitro; tested at: 250 nM; notes: 60-bp whole probe; together with: salmon DNA 0.4 mg/ml; relative to: random background probes; reading: higher = stronger binding; all sequences stand within: GCCTAGCAC … GTCTTGATTCGCTTGACGCTGCTG
Target: Interferon regulatory factor 7, full length, phosphomimetic (IRF7, Homo sapiens, UniProt Q92985, residues 1-503, S101K/S471D/S472D/S475D/S476D/S477D/S483D/S484D/S487D)
Construct (chain): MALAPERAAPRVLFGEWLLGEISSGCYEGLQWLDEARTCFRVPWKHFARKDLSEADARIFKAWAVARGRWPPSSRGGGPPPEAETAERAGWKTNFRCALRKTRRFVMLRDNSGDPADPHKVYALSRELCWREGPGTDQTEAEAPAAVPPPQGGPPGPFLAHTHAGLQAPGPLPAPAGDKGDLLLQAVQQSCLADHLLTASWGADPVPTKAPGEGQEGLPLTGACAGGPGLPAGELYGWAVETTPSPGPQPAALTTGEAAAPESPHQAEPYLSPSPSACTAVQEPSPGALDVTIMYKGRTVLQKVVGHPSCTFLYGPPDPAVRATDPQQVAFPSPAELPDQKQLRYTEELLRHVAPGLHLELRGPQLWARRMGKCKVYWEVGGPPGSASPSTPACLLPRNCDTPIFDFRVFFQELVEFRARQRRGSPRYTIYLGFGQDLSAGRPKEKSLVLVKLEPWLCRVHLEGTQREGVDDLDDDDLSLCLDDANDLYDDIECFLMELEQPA
With `TTAGATATCAGTTTCGAATAGTGCTAG` the log fluorescence was 4.02 z-score.
`TTAGATTTCGCGTTTCGATTAGTGCTA` has a log fluorescence of 4.06 z-score.
`TTAGCTATCGGGTATCGATTAGTGCTA` has a log fluorescence of 0.183 z-score.
`TTCTTTTTTTTCTTTAAAAGGTGCTAG` has a log fluorescence of 1.38 z-score.
For `CATTCTCTGCTTCTGTATGGGTGCTAG`, the log fluorescence was 2.12 z-score.

Mixed results
`PhoQ, residues 284 288 289 292 302 303 QWQEDG` gave a fold induction of 16.6 (PhoP, residues 12 14 15 18 19 TQAIL (Escherichia coli, UniProt P23836); Sort-seq, measured: YFP reporter; E. coli; PhoQ-PhoP variant library, together with: 10 µM Mg2+; relative to: high Mg2+ state, higher = stronger signaling).

Some of these lines once more (block 3):
For `CATTCTCTGCTTCTGTATGGGTGCTAG`, the log fluorescence was 2.12 z-score.
With `TTAGATATCAGTTTCGAATAGTGCTAG` the log fluorescence was 4.02 z-score.
